Assay results of several laboratories.

OC[C@H]1[C@@H](O)[C@@H](O)CN1CCc1ccccc1  CC50 (BJ; MTS; 72 h): > 200 µM
C[N+](C)(CC(=O)Nc1cccc(C(F)(F)F)c1)CC(=O)Nc1cccc(C(F)(F)F)c1  CC50 (Huh-7; cell growth or viability): 2.99 µM
COc1ccc(Nc2c(C#N)cnc3ccc(Cl)cc23)cc1  CC50 (mouse primary embryonic cardiomyocytes; resazurin; 72 h, no heme): > 100 µM
COc1ccc2c(c1)C1CC(C)(N2)c2c(C)nc3ccc(OC)cc3c21 (stereo not drawn)  CC50 (Huh-7; cell growth or viability, MTT; 24 h): > 400 µM
COc1cc(CN2CCN(c3ccccc3Cl)CC2)c2cc3[n+](cc2c1O)CCc1cc2c(cc1-3)OCO2  CC50 (MDCK; cell growth or viability, SRB; 48 h): 148 µg/mL
Cc1ccccc1-c1nnn(C23CC4CC(CC(C4)C2)C3)n1  CC50 (MDCK; MTT; 72 h): > 300 µg/mL
Cc1ncnc2c1c(C(F)(F)F)cn2[C@@H]1O[C@H](CO)[C@@H](O)[C@H]1O  CC50 (MRC-5 SV2; cell growth or viability, resazurin; 72 h): 1.68 µM
CC(C)=CCC[C@H](C)c1ccc(C)cc1  CC50 (MDCK; cell growth or viability, MTT; 72 h): 138 µg/mL
COc1cc(CN2CCN(c3ccc([N+](=O)[O-])cc3)CC2)c2cc3[n+](cc2c1O)CCc1cc2c(cc1-3)OCO2  CC50 (MDCK; cell growth or viability, SRB; 48 h): 141 µg/mL
COc1ccc(CN2C[C@H](O)[C@H](O)[C@@H]2CO)cc1  CC50 (BJ; MTS; 72 h): > 200 µM
COc1cc(CN2CCN(c3ccc(F)cc3)CC2)c2cc3[n+](cc2c1O)CCc1cc2c(cc1-3)OCO2  CC50 (MDCK; cell growth or viability, SRB; 48 h): 139 µg/mL
O=C(CCN(CCC(=O)NC(Cc1c[nH]c2ccccc12)C(=O)O)C(=O)CCC(CCC(=O)N(CCC(=O)NC(Cc1c[nH]c2ccccc12)C(=O)O)CCC(=O)NC(Cc1c[nH]c2ccccc12)C(=O)O)(CCC(=O)N(CCC(=O)NC(Cc1c[nH]c2ccccc12)C(=O)O)CCC(=O)NC(Cc1c[nH]c2ccccc12)C(=O)O)[N+](=O)[O-])NC(Cc1c[nH]c2ccccc12)C(=O)O (stereo not drawn)  CC50 (MT4; 5 (unit not given)): > 100 µM

Repeated from above:
COc1ccc2c(c1)C1CC(C)(N2)c2c(C)nc3ccc(OC)cc3c21 (stereo not drawn)  CC50 (Huh-7; cell growth or viability, MTT; 24 h): > 400 µM
OC[C@H]1[C@@H](O)[C@@H](O)CN1CCc1ccccc1  CC50 (BJ; MTS; 72 h): > 200 µM
